Results gathered from unrelated publications.
Compare with care: the assays were run in different laboratories. Numbers after ± are the reported error.
Technique: steady-state kinetics
B1: enzyme (Delftia acidovorans, UniProt A9BQX8); chain MVADSRLPNFRALTPAQRRDFLADACGLSDAERALLAAPGALPLALADGMIENVFGSFELPLGVAGNFRVNGRDVLVPMAVEEPSVVAAASYMAKLAREDGGFQTSSTLPLMRAQVQVLGVTDPHGARLAVLQARAQIIERANSRDKVLIGLGGGCKDIEVHVFPDTPRGPMLVVHLIVDVRDAMGANTVNTMAESVAPLVEKITGGSVRLRILSNLADLRLARARVRLTPQTLATQDRSGEEIIEGVLDAYTFAAIDPYRAATHNKGIMNGIDPVIVATGNDWRAVEAGAHAYASRSGSYTSLTRWEKDAGGALVGSIELPMPVGLVGGATKTHPLARLALKIMDLQSAQQLGEIAAAVGLAQNLGALRALATEGIQRGHMALHARNIALVAGATGDEVDAVARQLAAEHDVRTDRALEVLAALRARA
B2: TcC (Trypanosoma cruzi, UniProt Q4DGA3); chain MPREYEFAEKILFTEEEIRTRIMEVAKRIADDYKGKGLRPYVNPLVLISVLKGSFMFTADLCRALSDFNVPVRMEFICVSSYGEGVTSSGQVRMLLDTRHSIEGHHVLIVEDIVDTALTLNYLYHMYFTRRPASLKTVVLLDKREGRRVPFSADYVVANIPNAFVIGYGLDYDDTYRELRDIVVLRPEVYAEREAARQKKQRAIGSADTDRDAKREFHSKY
B3: nitrilase Y142F (Rhodococcus rhodochrous, UniProt A4LA85); chain MVEYTNTFKVAAVQAQPVWFDAAKTVDKTVSIIAEAARNGCELVAFPEVFIPGYPYHIWVDSPLAGMAKFAVRYHENSLTMDSPHVQRLLDAARDHNIAVVVGISERDGGSLYMTQLIIDADGQLVARRRKLKPTHVERSVFGEGNGSDISVYDMPFARLGALNCWEHFQTLTKYAMYSMHEQVHVASWPGMSLYQPEVPAFGVDAQLTATRMYALEGQTFVVCTTQVVTPEAHEFFCENEEQRKLIGRGGGFARIIGPDGRDLATPLAEDEEGILYADIDLSAITLAKQAADPVGHYSRPDVLSLNFNQRRTTPVNTPLSTIHATHTFVPQFGALDGVRELNGADEQRALPSTHSDETDRATASI
B4: enzyme H376N (Acetivibrio thermocellus, UniProt A3DJ38); chain MKLTIPELSLVVLIGSSGSGKSTFAKKHFKPTEVISSDFCRGLVSDDENDQTVTGAAFDVLHYIVSKRLQLGKLTVVDATNVQESARKPLIEIAKDYHCFPVAVVFNLPEKVCQERNKNRTDRQVEEYVIRKHTQQLKKSIKGLQREGFRYVYILNSPEEVEEVVFERQPLWNNKKDEHGPFDIIGDIHGCYDELKMLLEKLGYLIEEVEGGVGSGKYRVTHPEGRKVLFLGDLVDRGPKITEVLKLVMGMVKSGIALCVPGNHDVKLLRKLNGRDVQITHGLDRTLEQLAKEPQEFIEEVKAFIDGLVSHYVLDDGKLVVAHAGMKEEFQGRGSGKVREFALYGETTGETDEYGLPVRYDWASDYRGKALVVYGNTPQAEVLKVNNTINIDTGCVFGGKLTAYRYPEREIVDVKALKTYYEPAKPFLPKEDMAERFEARTDNDILDINDVLGKKIITTRLMSSITIHEENSIAALEVMSRFAADPHWLIYLPPTMSPCETSKKEGMLEHPIEAFEYFRTRGVGKVVCEQKHMGSRAVVIVCKDSQVAEKRFGVLDGTAGICYTRTGRHFFDDMQLEAELIDRVRKVLDKSGFWGDFNTDWVCLDCELMPWSAKAQKLLEEQYSAVGISGRVVLDEAVKLLKQASLNKTVSFDVSRQTSGKNADINELLQRFTERSEMMQKYVEAYRKYCWPVNSIDDLKLAPFHILATEGKVHSDKNHIWHMDTIAKYCTQDDSLIMATNHILVDVTDAESVDKGIKWWEDLTASGGEGMVVKPYDFIVKNGRELLQPAVKCRGREYLRIIYGPEYTMDENIERLRNRAVGKKRSLALREFSLGMEALERFVRNEPLYRVHECVFGVLALESEPVDPRL
B5: enzyme E217L/L163H/N249W (Thermobifida fusca, UniProt Q47RK4); chain MTDVYILDAVRTPFGRYGGALSGIRPDDLAAHVLRALAERSPGLDPAAVDDVFFGDANGAGEDNRNVARMAALLAGWPTSVPGVTLNRLCGSGMESVIAANRAIAVGDASLAVAGGVESMSRAPWVLPKPAQGFPTGHETLYSTTLGWRMVNPAMPEQWTVSHGESTEQVAATYGISRAEQDAFALRSHERAARAWAEGVFDAEITQIPGAELERDLSIRETSAEKLAALKPAFRPDGTITAGNASPLWDGAAALLIGDAAAAERVGREPLARIVSRGVAAVDPDVFGIGPVQAAEIALRRAGIGWDDLSVVELNEAFAAQSLACLKLWPDLDPEIVNPNGGAIAIGHPLGASGARIVGTLAHELHRRGGGWGLAAICIGVGQGLAVVLHR
Chain of UniProt Q8ZMX2 (whole entry, looked up): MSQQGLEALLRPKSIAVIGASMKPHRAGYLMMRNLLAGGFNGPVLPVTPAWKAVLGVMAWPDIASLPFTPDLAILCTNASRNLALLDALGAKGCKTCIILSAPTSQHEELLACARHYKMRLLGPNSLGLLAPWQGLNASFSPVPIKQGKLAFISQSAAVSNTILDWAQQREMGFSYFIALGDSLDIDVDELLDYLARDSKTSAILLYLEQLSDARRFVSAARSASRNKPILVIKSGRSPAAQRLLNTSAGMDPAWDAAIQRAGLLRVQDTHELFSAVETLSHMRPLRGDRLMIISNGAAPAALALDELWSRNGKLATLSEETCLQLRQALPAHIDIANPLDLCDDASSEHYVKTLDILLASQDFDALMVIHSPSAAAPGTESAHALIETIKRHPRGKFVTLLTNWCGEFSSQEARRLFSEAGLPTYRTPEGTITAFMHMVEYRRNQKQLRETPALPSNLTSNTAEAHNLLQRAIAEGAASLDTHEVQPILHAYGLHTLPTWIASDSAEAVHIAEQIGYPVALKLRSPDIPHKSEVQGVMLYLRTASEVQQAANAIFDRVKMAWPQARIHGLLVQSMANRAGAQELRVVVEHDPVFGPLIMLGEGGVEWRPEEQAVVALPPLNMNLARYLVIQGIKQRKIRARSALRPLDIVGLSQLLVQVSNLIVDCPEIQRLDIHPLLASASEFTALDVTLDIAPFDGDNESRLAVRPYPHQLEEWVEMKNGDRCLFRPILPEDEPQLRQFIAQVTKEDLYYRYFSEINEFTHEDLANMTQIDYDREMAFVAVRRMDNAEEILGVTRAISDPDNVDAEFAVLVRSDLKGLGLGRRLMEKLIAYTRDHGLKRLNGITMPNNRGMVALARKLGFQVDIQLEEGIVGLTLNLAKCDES
Chain of UniProt D2D3B2 (whole entry, looked up): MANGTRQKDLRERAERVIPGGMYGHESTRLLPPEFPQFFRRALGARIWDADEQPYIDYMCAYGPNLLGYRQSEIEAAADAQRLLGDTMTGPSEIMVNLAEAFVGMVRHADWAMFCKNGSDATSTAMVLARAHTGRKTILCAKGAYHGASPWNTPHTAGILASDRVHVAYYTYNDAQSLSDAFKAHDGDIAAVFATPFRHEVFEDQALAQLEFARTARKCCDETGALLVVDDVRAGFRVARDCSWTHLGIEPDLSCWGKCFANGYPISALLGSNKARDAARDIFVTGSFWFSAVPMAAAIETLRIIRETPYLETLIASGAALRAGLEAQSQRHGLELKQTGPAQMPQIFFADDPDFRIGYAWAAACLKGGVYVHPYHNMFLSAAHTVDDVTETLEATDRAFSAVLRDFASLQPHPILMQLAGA
Chain of UniProt Q6XEC0 (whole entry, looked up): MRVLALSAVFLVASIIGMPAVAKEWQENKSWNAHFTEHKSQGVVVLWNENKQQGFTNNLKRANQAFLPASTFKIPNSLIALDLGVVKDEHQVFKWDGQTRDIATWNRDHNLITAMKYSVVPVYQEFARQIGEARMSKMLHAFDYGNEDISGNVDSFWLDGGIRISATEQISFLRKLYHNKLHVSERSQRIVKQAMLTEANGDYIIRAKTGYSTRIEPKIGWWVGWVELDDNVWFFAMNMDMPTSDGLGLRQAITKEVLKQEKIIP

Molecule	substrate	pH	temperature	notes	with	kcat [s⁻¹]
enzyme (Sphingopyxis macrogoltabida, UniProt D2D3B2)	CCCC[C@@H](C)[C@@H](O)[C@@H](O)C[C@@H](C)C[C@H](O)CCCC[C@@H](O)C[C@H](O)[C@H](C)N	pH 8	35 °C	apparent	–	1.73
B1 (enzyme)	NC(=O)C1=CN([C@@H]2O[C@H](COP(=O)(O)OP(=O)(O)OC[C@H]3O[C@@H](n4cnc5c(N)ncnc54)[C@H](O)[C@@H]3O)[C@@H](O)[C@H]2O)C=CC1	–	–	cofactor varied	–	16.6 ± 0.2
B2 (TcC)	Oc1ncnc2[nH]ncc12	pH 8.3	37 °C	apparent	PRPP 1 mM, MgCl2 12 mM	2 ± 0.1
enzyme (Paenarthrobacter nicotinovorans, UniProt P08159)	CN1CCC[C@@H]1c1ccc(O)nc1	pH 8	25 °C	–	–	77 ± 24
ω-transaminase A60V/E38Q/I154V/M128F/P9A/S87N/W58G (Pseudomonas jessenii)	O=C1CCc2ccccc21	pH 8	56 °C	apparent	isopropylamine 1 M, PLP 0.05 mM	1.2 ± 0.02
pat (Salmonella enterica, UniProt Q8ZMX2)	CC(=O)SCCNC(=O)CCNC(=O)[C@H](O)C(C)(C)COP(=O)(O)OP(=O)(O)OC[C@H]1O[C@@H](n2cnc3c(N)ncnc32)[C@H](O)[C@@H]1OP(=O)(O)O	pH 7.5	37 °C	apparent, sigmoidal fit	AcsC 400 µM	4.3 ± 0.3
B3 (nitrilase Y142F)	N#Cc1ccccn1	pH 7.5	25 °C	–	–	0.000118 ± 1.67e-06
OXA-48 (Klebsiella pneumoniae, UniProt Q6XEC0)	O=C(Cc1cccs1)N[C@@H]1C(=O)N2C(C(=O)O)=C(/C=C/c3ccc([N+](=O)[O-])cc3[N+](=O)[O-])CS[C@H]12	pH 7.2	30 °C	–	–	143 ± 24
B4 (enzyme H376N)	Nc1ncnc2c1ncn2[C@@H]1O[C@H](CO)[C@H]2OP(=O)(O)O[C@H]21	pH 7.5	45 °C	–	–	5.13 ± 0.3
B5 (enzyme E217L/L163H/N249W)	CC(C)(COP(=O)(O)OP(=O)(O)OC[C@H]1O[C@@H](n2cnc3c(N)ncnc32)[C@H](O)[C@@H]1OP(=O)(O)O)[C@@H](O)C(=O)NCCC(=O)NCCSC(=O)CCCC(=O)O	pH 7.4	37 °C	–	–	0.005 ± 0.0007
